Assay results from different studies.
Compare with care: the assays were run in different laboratories.
Cell line: HEK293

Compound	observed	technique	concentration	time	viability [%]
c1cc2nc(c1)-c1cccc(n1)CCCc1ccc(cc1)OCCCCCCOc1ccc(cc1)CCC2	cell growth or viability	MTT	100 µM	24 h	63.8
N=C(N)NCCC[C@@H]1NC(=O)[C@H](CCCNC(=N)N)NC(=O)[C@@H](C(c2ccccc2)c2ccccc2)NC(=O)[C@H](Cc2c[nH]c3ccccc23)NC(=O)[C@@H](C(c2ccccc2)c2ccccc2)NC(=O)[C@@H](CCCNC(=N)N)NC(=O)[C@@H](CCCNC(=N)N)NC1=O	cell growth or viability	MTS	200 µg/mL	24 h	72 to 77
CCOc1cc(/C=N/NC(=O)c2ccncc2)ccc1OC(=O)CN1C(=O)CSC1=O	cell growth or viability	MTT	30 µg/mL	24 h	> 70
CN1CCCNC(=O)c2cccc(c2)C(=O)NCCCN(C)CCCNc2cccc3c2C(=O)c2cccc(c2C3=O)NCCC1	cell growth or viability	CCK-8	1 nM	48 h	101
Cc1ccc(-n2cc(CSc3nc4ccccc4n3Cc3cn(-c4ccc(C)cc4)nn3)nn2)cc1	–	MTT	31.3 ppm	–	48.1
N=C(N)NCCC[C@@H]1NC(=O)[C@H](CCCNC(=N)N)NC(=O)[C@@H](Cc2ccc3ccccc3c2)NC(=O)[C@H](Cc2c[nH]c3ccccc23)NC(=O)[C@@H](Cc2ccc3ccccc3c2)NC(=O)[C@@H](CCCNC(=N)N)NC(=O)[C@@H](CCCNC(=N)N)NC1=O	cell growth or viability	MTS	200 µg/mL	24 h	67 to 72
CC[C@H](C)[C@@H](C(=O)N[C@@H](Cc1ccc(O)cc1)C(=O)N1CCC[C@H]1C(=O)N[C@@H](Cc1ccccc1)C(=O)O)n1cc(C(Cc2ccc(O)cc2)NC(=O)[C@@H](NC(=O)[C@H](CCCNC(=N)N)NC(=O)[C@@H](N)CC(=O)O)C(C)C)nn1 (some centres unmarked)	cell growth or viability	MTT	25 µM	24 h	92.5
O=C(CN1C(=O)CSC1=O)Oc1ccc(/C=N/NC(=O)c2ccccn2)cc1Br	cell growth or viability	MTT	40 µg/mL	24 h	> 70

For quick reference, copied from above:
Compound	observed	technique	concentration	time	viability [%]
Cc1ccc(-n2cc(CSc3nc4ccccc4n3Cc3cn(-c4ccc(C)cc4)nn3)nn2)cc1	–	MTT	31.3 ppm	–	48.1
